Measurements of several laboratories.
Numbered parts are unrelated; each lists some results of a single study. Substitutions count along the parent as printed.

Set 1
Target: CCNA1, cyclin fold, Cln2 fusion (human)
Technique: yeast growth competition, sequencing
Sample: yeast
Setting: weak parent motif
Reference: not given
Direction: higher = stronger binding
Quantity: normalised enrichment score
Parent: E2F1 docking peptide (human); PPVKRRLDLETDH; partner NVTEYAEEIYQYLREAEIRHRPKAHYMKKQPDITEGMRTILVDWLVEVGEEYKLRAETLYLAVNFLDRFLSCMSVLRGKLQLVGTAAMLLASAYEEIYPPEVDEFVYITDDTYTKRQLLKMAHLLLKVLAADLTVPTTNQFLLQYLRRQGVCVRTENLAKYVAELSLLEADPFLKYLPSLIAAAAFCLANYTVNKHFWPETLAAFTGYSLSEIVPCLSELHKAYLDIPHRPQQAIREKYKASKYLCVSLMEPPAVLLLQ
PPVSRRLDLETDH [K4S]: 0.368
PPVKGRLDLETDH [R5G]: 0.376
PPVRRRLDLETDH [K4R]: 0.742
KPVKRRLDLETDH [P1K]: 0.624
PPVKRRLDLETYH [D12Y]: 0.79
PPHKRRLDLETDH [V3H]: 0.119
PPVKRRLDLEPDH [T11P]: 0.771
MPVKRRLDLETDH [P1M]: 0.696
PPVERRLDLETDH [K4E]: 0.305
PPVKRGLDLETDH [R6G]: 0.248
PPVKRRLDLEIDH [T11I]: 0.181
PPVKRRLDLQTDH [E10Q]: 0.653
PPVKDRLDLETDH [R5D]: 0.607
PPVDRRLDLETDH [K4D]: 0.194
TPVKRRLDLETDH [P1T]: 0.232
PPVKRRLDLYTDH [E10Y]: 0.331
PPVKRRLDLETWH [D12W]: 0.267
PPVKRRLDLEDDH [T11D]: 0.241
PPVKRRLDLVTDH [E10V]: 0.339
PPVKRRLDLETSH [D12S]: 0.33
PPVFRRLDLETDH [K4F]: 0.286
PPVCRRLDLETDH [K4C]: 0.558
PPVKRRLDLEADH [T11A]: 0.572
PPVKRQLDLETDH [R6Q]: 0.496

Set 2
Target: TAR DNA-binding protein 43, full length, His tag (TARDBP, Homo sapiens, UniProt Q13148, residues 1-414)
Technique: RNA Bind-n-Seq
Form: RNA
Sample: in vitro
Tested at: 20 nM
Setting: 6-mer, flanks averaged, single round
Together with: 150 mM KCl
Reference: input library
Direction: higher = stronger binding
Quantity: 6-mer enrichment (R)
UGGAUU: 0.69
CGGGGC: 3.89
UCGACA: 0.632
AAAAUU: 0.65
UUAUUC: 0.571
GCCGAG: 1.54
CGUGCG: 1.47
UCGACU: 0.594
GUCAGG: 1.7
CGAUAC: 0.61
CCCCAG: 0.713
CAGUGU: 0.911
GCGUGC: 1.48
CACAGC: 0.711
CCCCAC: 0.654
CCAAUC: 0.594
ACUGUC: 0.616
AAGGAC: 0.812

Set 3
Target: Interferon regulatory factor 7, full length, phosphomimetic (IRF7, Homo sapiens, UniProt Q92985, residues 1-503, S471D/S472D/S475D/S476D/S477D/S483D/S484D/S487D)
Technique: protein-binding microarray
Form: double-stranded DNA, one strand shown
Sample: in vitro
Tested at: 2200 nM top
Setting: 60-bp whole probe
Together with: salmon DNA 0.4 mg/ml
Reference: random background probes
Direction: higher = stronger binding
Quantity: fitted relative affinity
Shared flanks, not repeated: GCCTAGCAC … GTCTTGATTCGCTTGACGCTGCTG
Residues (chain): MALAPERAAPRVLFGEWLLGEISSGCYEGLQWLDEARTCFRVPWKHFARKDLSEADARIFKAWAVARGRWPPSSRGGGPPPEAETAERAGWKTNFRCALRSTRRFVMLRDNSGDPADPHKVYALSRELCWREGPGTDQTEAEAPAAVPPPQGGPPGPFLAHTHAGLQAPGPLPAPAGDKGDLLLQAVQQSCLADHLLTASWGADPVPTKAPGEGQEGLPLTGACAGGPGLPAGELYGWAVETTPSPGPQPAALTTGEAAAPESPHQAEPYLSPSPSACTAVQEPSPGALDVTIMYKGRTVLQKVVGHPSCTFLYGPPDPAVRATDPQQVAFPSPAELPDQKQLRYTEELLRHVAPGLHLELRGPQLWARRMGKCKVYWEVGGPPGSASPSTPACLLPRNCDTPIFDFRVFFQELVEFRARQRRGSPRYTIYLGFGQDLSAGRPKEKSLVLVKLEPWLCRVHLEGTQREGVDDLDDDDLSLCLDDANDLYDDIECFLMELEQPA
TCAAGAATGTCCTTTCTCACTGTGCTA: 0.495 z-score
TTAGGTTTCGGGTTTCGCTTAGTGCTA: 9.45 z-score
CACTCCACCTCTGTGCTCTTGTGCTAG: 1.4 z-score
ATAGATCTCAGACTGGATTAGTGCTAG: 0.113 z-score
TTAGGTATCGACACGGGGTTAGTGCTA: -0.0862 z-score
TTAAATTTCAGTATCGATTAGTGCTAG: 0.936 z-score
GCCGGACTGCTACTGCTGACGTGCTAG: -0.326 z-score
GACGGACTGGGGTATCGGGAAGTGCTA: -0.882 z-score
TTAGATTTCGGGTTTCTATTAGTGCTA: 4.61 z-score
TTAGGTATCGATTATCGGTTAGTGCTA: 0.832 z-score
GACTGTTTCCTTTTCCTGACGTGCTAG: 4.78 z-score
GACGGACTGCTTTTCCTGATGTGCTAG: 0.538 z-score
GACGATATCGGGAATGGAGACGTGCTA: -0.253 z-score
TTAGATATCAGACTGGGTTAGTGCTAG: -0.255 z-score
GGCGGACTGCTTCTCCTGACGTGCTAG: -0.204 z-score
TTAGAACTGGGGTACCGATTAGTGCTA: -0.378 z-score
GACGGACTGGGTATCTGGACGTGCTAG: -0.764 z-score
TCATTTCTATTTTCTGAACTGTGCTAG: 3.99 z-score
ATTGTTTCCTCTTTCACTGCGTGCTAG: 4.33 z-score
GACGGACTGCTACTGCTAACGTGCTAG: -0.131 z-score

Set 4
Target: Sal-like protein 4, full length isoform B (SALL4, Homo sapiens, UniProt Q9UJQ4-2, residues 1-616)
Technique: universal PBM
Form: double-stranded DNA, one strand shown
Sample: in vitro
Tested at: not given
Setting: 8-mer, flanks averaged, mean of replicates
Direction: higher = stronger binding
Quantity: E-score
AGAGAACA: 0.0832
TAGCAAAA: 0.224
TCGAGACA: -0.0329
CACATGGA: 0.00482
ACCCCGGG: -0.321
AAGGATTA: 0.222
CATGTGAG: 0.024
ATCTTTCA: 0.137
ATTCGACA: 0.0769
GAAATTGA: 0.208
GAGGCTAC: -0.27
GGGCATAA: 0.0751
AGGGGTTG: 0.0156
CCACGAGC: -0.218
AGTCCGAT: 0.0203
GCGTCTCC: -0.198
AAATCGTT: 0.151
CAAGTAGC: -0.0967
GCAACGAA: 0.0155
AGTTATGA: 0.415
AGGCGGAT: -0.0713
CAACGTAA: 0.0996
CTACCTGA: -0.00635
ACAACATG: 0.0767
CAATCCCA: -0.185

Set 5
Target: Histone acetyltransferase KAT6A, winged helix 2, GST fusion (KAT6A, Homo sapiens, UniProt Q92794, residues 85-181)
Technique: protein binding microarray
Form: double-stranded DNA, one strand shown
Sample: in vitro
Tested at: not given
Setting: 8-mer, flanks averaged, mean of 2 arrays, mostly near background
Reference: not given
Direction: higher = stronger binding
Quantity: E-score
Target sequence (chain): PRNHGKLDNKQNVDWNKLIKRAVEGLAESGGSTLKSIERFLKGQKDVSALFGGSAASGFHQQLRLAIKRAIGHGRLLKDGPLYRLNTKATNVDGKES
CCGTACGG: -0.0891
GAGAACGA: 0.00748
CGTGTGAG: -0.00258
AGCAGGTA: -0.106
ACTGTCCC: -0.0673
AACGCGCA: 0.137
AGCGGTGG: -0.0207
AATGGGCC: -0.115
GAGGGGTA: -0.00183
CGGTCGCA: 0.0964
TACGTAGA: -0.256
CTTGCTAA: 0.143
GCGCCGCA: 0.113
AGAGCGTG: 0.0276
GAAACTAC: 0.111
GTTGAAGA: -0.0947
TACTCAGA: 0.155
ACGGACGC: -0.00918
CCGACAGG: 0.163
ACGCGGCA: 0.0143
CCACCGGG: 0.0519
CCGCGTTC: 0.154
TAAATTCA: -0.0159
CGAGGACA: -0.127
GCAGAGGC: 0.0804

Set 6
Target: Protein C-ets-1 (ETS1, Homo sapiens, UniProt P14921, residues 1-441, Y397A, full length assumed)
Chain of UniProt P14921 (whole entry, unmodified, looked up): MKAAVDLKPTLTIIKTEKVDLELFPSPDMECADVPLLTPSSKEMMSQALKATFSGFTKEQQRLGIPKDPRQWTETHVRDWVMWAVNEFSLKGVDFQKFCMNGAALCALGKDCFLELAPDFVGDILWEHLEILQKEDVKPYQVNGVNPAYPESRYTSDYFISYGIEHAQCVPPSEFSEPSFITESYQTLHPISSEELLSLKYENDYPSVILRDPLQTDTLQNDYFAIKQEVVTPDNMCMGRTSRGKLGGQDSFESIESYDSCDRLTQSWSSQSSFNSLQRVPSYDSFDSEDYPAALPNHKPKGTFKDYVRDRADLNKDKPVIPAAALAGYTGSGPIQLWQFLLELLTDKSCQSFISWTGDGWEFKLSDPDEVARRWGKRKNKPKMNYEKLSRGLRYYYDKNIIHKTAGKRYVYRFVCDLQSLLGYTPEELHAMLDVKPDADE
Technique: protein-binding microarray
Form: double-stranded DNA, one strand shown
Sample: in vitro
Tested at: not given
Setting: k-mer, scored over probes, only values ≥0.25
Direction: higher = stronger binding
Quantity: E-score
ATTGCCAA: 0.311
GTCACTCA: 0.276
AATTTGCC: 0.268
ATTTGTAC: 0.261
GCTGACAA: 0.282
GGCAAATA: 0.375
CCATATCC: 0.262
GCCAAACA: 0.31
TGCCGGCA: 0.342
ACAATGTG: 0.293
ACGGATTG: 0.252
GTTTGACA: 0.329
CCCTCCCA: 0.311
CTTCCGTC: 0.277
CCTGACAA: 0.363
ACAACACT: 0.271
ACATCCGG: 0.481
AGGAAATG: 0.303
AATGTGAC: 0.253
GTCAACAA: 0.291
CCGGATGC: 0.412

For quick reference, copied from above (set 2):
UGGAUU: 0.69
CGGGGC: 3.89
UCGACA: 0.632
AAAAUU: 0.65
UUAUUC: 0.571
GCCGAG: 1.54
CGUGCG: 1.47
UCGACU: 0.594
GUCAGG: 1.7
CGAUAC: 0.61
CCCCAG: 0.713
CAGUGU: 0.911
GCGUGC: 1.48
CACAGC: 0.711
CCCCAC: 0.654
CCAAUC: 0.594
ACUGUC: 0.616
